# Measurements pooled from the literature.
# Lines come from different studies, so protocols differ. Values joined by “and” are separate records of one study, mostly repeats; a detail may differ. ± marks the error that the study gave.
# CDK2 with cyclin A: Cyclin-dependent kinase 2, with cyclin A (CDK2, Homo sapiens, UniProt P24941)
SMILES,tested on,assay,test system,conditions,scale,measurement,value
CNCc1ccc(-c2[nH]c3cc(F)cc4c3c2CCNC4=O)cc1,,,patients,"oral, 600 mg twice daily, grade 1",,cough incidence,3.8%
c1coc(-c2n[nH]cc2-c2ccnc3ccccc23)c1,TPK2 (Candida albicans),"kinase binding, MIB/MS competition",Candida albicans lysate,1 µM,baseline: DMSO,log2 fold change,-0.28
COc1cc([N+](=O)[O-])ccc1NC(=O)CN1CCOCC1,CDK2 with cyclin A,,,,,Kd,> 100 µM
CC(C)C[C@H](NC(=O)C[C@H](O)[C@H](CC(C)C)NC(=O)[C@H](Cc1c[nH]cn1)NC(=O)CNC(=O)[C@@H](NC(=O)[C@H](C)NC(=O)[C@H](Cc1c[nH]c2ccccc12)NC(=O)[C@H](CCC(N)=O)NC(=O)[C@@H](Cc1ccccc1)NC(=O)COCCOCCNC(=O)CCC(C(=O)O)N1CCN(CC(=O)O)CCN(CC(=O)O)CCN(CC(=O)O)CC1)C(C)C)C(N)=O (stereo partly shown) [lutetium-177 labelled],,,"BALB/c nu/nu mice, stomach","intravenous, 750 pmol, 1 h, together with: PA 300 µg",,tissue uptake,0.7 ± 0.2 %ID/g
O=C(Cn1cnc([N+](=O)[O-])n1)Nc1ccc(N2CCOCC2)c(Cl)c1,CDK2 with cyclin A,,,,,Kd,> 100 µM
CC(C)n1ncc2c(C(=O)NCC3(C)CNC3)cc(C3CC3)nc21,coxsackievirus B3,CPE,Vero,0.15 µM,,cell protection,21.9% and 19%
N#Cc1ccc2c(-c3ccncc3)c(-c3ccc(F)cc3)nn2c1,orf19.6492 kinase Candida albicans,MIB/MS competition binding,Candida albicans cell lysate,100 nM,"baseline: DMSO, lower = stronger binding",log2 fold change,-0.0952
Oc1ccccc1-c1n[nH]cc1-c1ccnc2ccccc12,TPK2 (Candida albicans),"kinase binding, MIB/MS competition",Candida albicans lysate,10 µM,baseline: DMSO,log2 fold change,0.44
NC(=O)c1cnc2[nH]ccc2c1N[C@@H]1[C@@H]2CC3C[C@H]1C[C@@](O)(C3)C2,,"CD8+ CD28+ naive T cells, flow cytometry","Japanese humans, peripheral blood",200 mg single dose,baseline: baseline,percent change,0.15%
c1ccc(-c2n[nH]cc2-c2ccnc3ccccc23)nc1,orf19.4518 kinase Candida albicans,MIB/MS competition binding,Candida albicans cell lysate,10 µM,"baseline: DMSO, lower = stronger binding",log2 fold change,1.41
COc1cc(C(=O)NS(=O)(=O)c2ccccc2C)ccc1Cc1cn(C)c2ccc(NC(=O)OC3CCCC3)cc12,native VRAC,"ion current, inhibitor, whole-cell patch clamp",wild-type HCT cells,"3 µM, pH 6.0, extracellular pH",,inhibition,31.3% and 48.6% and 20.3% and 9.73% and 38%
C=C[C@]1(C)C[C@@H](OC(=O)CSCCN(CC)CC)[C@]2(C)[C@H](C)CC[C@]3(CCC(=O)[C@H]32)[C@@H](C)[C@@H]1O,Mycoplasmoides gallisepticum,,"chicken, infected","oral, 40 mg/kg",direction not given,air sac lesion score,3 and 2 and 1
Cn1cc(-c2ccc(-c3cncc(Cl)c3N3CCC4(CCNC4=O)CC3)cc2)cn1,COLO 205,"gene expression, microarray, item: CCL20 mRNA",,"concentration not given, 6 h",baseline: untreated cells,log2 fold change,-1.57

# A few entries again:
SMILES,tested on,assay,test system,conditions,scale,measurement,value
COc1cc([N+](=O)[O-])ccc1NC(=O)CN1CCOCC1,CDK2 with cyclin A,,,,,Kd,> 100 µM
